# Measured values from different studies.
# Numbered parts are unrelated; each lists some results of a single study. Positions count from the first letter of the parent shown.

# Set 1 — technique: RNA Bind-n-Seq; form: RNA; sample: in vitro; concentration: not given; reference: input RNA pool; reading: higher = stronger binding
# Target: RING finger protein unkempt homolog, zinc fingers 1-6, GST-SBP tag (UNK, Homo sapiens, UniProt Q9C0B0, residues 30-357)
# UniProt Q9C0B0, sequence (30-357, looked up): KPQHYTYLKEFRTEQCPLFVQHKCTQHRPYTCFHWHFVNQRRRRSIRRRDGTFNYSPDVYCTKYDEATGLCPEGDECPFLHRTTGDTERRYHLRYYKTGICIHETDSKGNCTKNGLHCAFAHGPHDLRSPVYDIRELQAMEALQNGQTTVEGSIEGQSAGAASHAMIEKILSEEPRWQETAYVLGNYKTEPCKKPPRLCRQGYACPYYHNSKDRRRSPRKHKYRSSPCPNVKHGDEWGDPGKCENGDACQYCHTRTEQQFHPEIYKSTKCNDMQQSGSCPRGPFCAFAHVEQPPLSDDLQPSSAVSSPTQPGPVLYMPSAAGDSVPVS
# Notes: RNA with constant flanks, human and mouse sites, ends assumed
# All sequences stand within: GGGAGUUCUACAGUCCGACGAUC … CAACAGAGGAUUGAGCAUCA
Oligonucleotide,bound/input enrichment
UCCCUAAUCAAAGUAAACUAUAAUCAGACUGCAGUCAAAGUGCCUACAACACCUGCCAGCCCAGUGAAAAACUGGGGAGGAUUCCGGAUUCCAAAGAAGGGGGAACGGCAGCAGCAGGGA,0.207 ratio
CAGAAGAAAGAUACAGGCCAUAUCUAUGCAAUGAAGAUAUUGAGAAAGUCUGAUAUGCUUGAAAAAGAGCAGGUGGCCCAUAUCCGAGCAGAAAGAGAUAUUUUGGUAGAAGCAGAUGGU,0.219 ratio
AGAGGAACCGUGCAGGCCUUAGCGUGAGUGAUCACUUUAGAUCUUGGGAACCUGGUGGCCAUACUCCUUCAGGUGGAUCAACAGGCACACGACAUGGGAAAGAAGACCAAGAGGACAGCC,0.259 ratio
UCGCUCUGCCAUCCACCCACCGCAGCAGCAUCUUCAAGAAUAAAGCAAUAUAGUUUACUACAUUUUUUUUUAAAAUUGAAGGUCAGCCAUGCUUUCUGUAUUAUAUUGCAUAUGAAAUUG,0.367 ratio
ACCACACCCCCUAAUCAAGGAAGGCCAGAUUCUCCAGUCUAUGCUAACCUACAGGAACUGAAAAUAUCACAGUCUGCUCUUCCUCCUCUUCCUGGGAGCCCAGCAAUUCAAGUUAAUGGG,0.142 ratio
GAGAAGAUUAUCUGUAACUUAAAACCAGCUUUAAAACUUCGUCUUCGAUUCAUCACACACAUUAGCAAGAUGGAGCCAGCUGCAGUGCCUCCACAAGCCAUGAACAGUGGGUCUCCAGCA,0.414 ratio
ACCUUUUCAUUUUUAUUUUUUCUUUUCUCAACCAUUACGGUUUAUCUUUUUUUAAUGCAGAUAGUUAAAAUUUCACUGCCAGGUUUCUUCUGCCCACCCAAAAGAUCCAGUCUAUAAUUA,9.75 ratio
UCGCUUGCUCAGCGUUUGGAAAAACAUGAACUCAUUGAGUUCAGGAGAAUUGCUGCUUAUCUCUUCAAAGGCAACAAUCGCUGGAAACAGAGUGUAGAGCUGUGCAAGAAAGACAGCCUU,0.151 ratio
UACAACAUGGCUUCUGUCGACUUUGAUGGCUUCUUUGCAGCCUUUCUUCCAGAGUUCCUGACUAGCUGUGAUGGUGUGGAUGCCAAUCAGAAAAACGUUCUGGGGCGGAAUUUCAAGAUG,0.123 ratio
UUUAUGUAUAUGAGUACACUGCAGCUGUACAGAUGGUUAUGAGCCAUCGUGGUUGCUGAGAAUAGAACUCAAGACCUCUGCUUGCUCAGCCCCGCUCCCUCGCUGUGUCCCAAAGAUUUA,0.426 ratio
AGAGACAUGUUGCGGCGGAUUAAGGAAGAUGAAGAUGACAAGACAGUCAUGGAUCUUGCUGUAGUUUUGUUUGAAACGGCAACACUUCGGUCAGGAUAUCUUCUACCAGACACCAAGGCG,0.155 ratio

# Set 2 — technique: protein-binding microarray; form: double-stranded DNA, one strand shown; sample: in vitro; concentration: 940 nM top; notes: 60-bp whole probe; together with: salmon DNA 0.4 mg/ml; reference: random background probes; reading: higher = stronger binding; all sequences stand within: GCCTAGCAC … GTCTTGATTCGCTTGACGCTGCTG
# Target: Interferon regulatory factor 5, full length, phosphomimetic (IRF5, Homo sapiens, UniProt Q13568-2, residues 1-514, S451D/S453D/S456D/S462D)
Oligonucleotide,fitted relative affinity
GACGGACTGGGCATCGGGACGTGCTAG,-0.79 z-score
AAAGATATAAATGTAACATGGTGCTAG,-0.154 z-score
GACGGGTTCGGGTTTCGGGACGTGCTA,2.03 z-score
GCAGTTGTCGTTCAAGGCTGGTGCTAG,-0.467 z-score
GACGATTTCCGGACTGGAGACGTGCTA,-0.0193 z-score
CTGCCTCACATTGCTAAGACGTGCTAG,0.187 z-score
GACGGACTGGGGACTGGGTACGTGCTA,-0.64 z-score
GACGAACTGAGCTTCGAGACGTGCTAG,-0.657 z-score
CATCATTGCCTATTTTTCACCGTGCTA,0.994 z-score
GACGGTCTCCTACTGCTGAAGTGCTAG,-0.096 z-score
TCAACTTGTCTTTTCACACTGTGCTAG,0.644 z-score
TCACATCTTCCTCTGCCACTGTGCTAG,1.22 z-score
TTAGGTTTCCTTTCCCTTTGGTGCTAG,2.1 z-score
TCACCTTTCACTTTAACACTGTGCTAG,2.09 z-score
TTAGATATCAGCTTCGATTAGTGCTAG,-0.121 z-score
TTAGGACTGGGGTATCGGTTCGTGCTA,2.28 z-score
GACGGACTGGGTTGCGGGACGTGCTAG,-0.059 z-score
TGCTTTCTTTAACTCATTTTGTGCTAG,1.95 z-score
TCAGTTTTGTGTGTGTGACTGTGCTAG,0.772 z-score
TCATATATACACTTATGACTGTGCTAG,0.629 z-score
GCCGGTTTCGGGTTTCGGGACGTGCTA,9.55 z-score
TACGATCTCAGTTTCGAGACGTGCTAG,3.88 z-score
TTAGGACTGGACTTTCGGTAAGTGCTA,1.7 z-score
ATAGAACTGAGTTTCGATTAGTGCTAG,7.98 z-score
GACGGTATCGGGTTACGGGACGTGCTA,5.49 z-score

# Set 3 — technique: DHFR PCA, deep sequencing; sample: yeast; together with: (+)-ABA 200 µM; reference: wild-type fitted maximum; reading: higher = stronger binding
# Target: ABI1, truncated, D143A, DHFR fusion (Arabidopsis thaliana)
# Notes: methotrexate growth selection, single substitutions
# Parent: PYL1, truncated, DHFR fusion (Arabidopsis thaliana); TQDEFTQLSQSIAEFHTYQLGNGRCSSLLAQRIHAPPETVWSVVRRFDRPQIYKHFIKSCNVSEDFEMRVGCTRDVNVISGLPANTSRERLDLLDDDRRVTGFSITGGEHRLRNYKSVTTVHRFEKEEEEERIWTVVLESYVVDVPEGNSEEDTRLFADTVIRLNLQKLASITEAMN
Variant,relative binding score [%]
P50S,5.31
S9R,98.3
E109S,101
L28Q,82.8
E127N,103
T160Y,89.3
R155T,91.9
V40P,-1.69
L91W,54.4
T6H,102
A175F,92.4
R32C,89.4
S150G,83.7
V70S,84.4

# Set 4 — technique: RNA Bind-n-Seq; form: RNA; sample: in vitro; concentration: 1 µM; notes: whole 134-nt RNA, ends assumed; together with: 150 mM KCl; reference: input library; reading: higher = stronger binding
# Target: Ras GTPase-activating protein-binding protein 1, RRM domain (G3BP1, Homo sapiens, UniProt Q13283)
# UniProt Q13283, sequence (whole entry, looked up): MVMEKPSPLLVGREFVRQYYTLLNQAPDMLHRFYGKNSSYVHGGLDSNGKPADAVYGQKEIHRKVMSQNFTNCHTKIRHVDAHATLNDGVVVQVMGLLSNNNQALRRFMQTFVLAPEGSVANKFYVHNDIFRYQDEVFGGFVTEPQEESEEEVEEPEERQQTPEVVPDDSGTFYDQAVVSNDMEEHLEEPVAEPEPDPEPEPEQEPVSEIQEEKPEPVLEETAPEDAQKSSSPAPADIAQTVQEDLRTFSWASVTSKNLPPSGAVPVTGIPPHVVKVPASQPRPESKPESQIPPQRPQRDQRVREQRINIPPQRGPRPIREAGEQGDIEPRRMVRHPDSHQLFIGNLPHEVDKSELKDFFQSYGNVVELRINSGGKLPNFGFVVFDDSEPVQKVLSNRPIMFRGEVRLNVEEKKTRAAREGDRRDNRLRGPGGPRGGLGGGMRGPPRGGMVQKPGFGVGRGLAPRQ
# All sequences stand within: GGGAGUUCUACAGUCCGACGAUC … UGGAAUUCUCGGGUGUCAAGG
Oligonucleotide,log2 enrichment
UCAAGUCCUGUGCUACACAUCGUAUGUACCGAAUCGGAAAGGAAAAAAAGGAGGAAAGUAUUAUGUUACGCCGUUCGGAUCUGCACUUCC,-0.0805
GUCCUGUGCUACACAUCGUAUGUACCGAAUCGGGUUUUUUUGGGAAAAAGGGUUUGGGAAAGUAUUAUGUUACGCCGUUCGGAUCUGCAC,-0.178
CUGUGCUACACAUCGUAUGUACCGAAUCGGGGUUUUUUUGGGGUUUUUUUGGUUUUUUUGGGAAAGUAUUAUGUUACGCCGUUCGGAUCU,-0.289
ACCAUGCAGGUGGGCAUCUUUGGGAAGUGGGGCAAGGGGGGGAUAGGGAGGGGGGUAACACUGUGGGAACAGGUGGUCCCAGGUCGUUUC,1.3
UAACUUUAGAGGAGGAUCUGAUGGAUAUGGCAGUGGACAUGGAUUUGGGGAUGGCUAUAAUGGGUAUGGAGGAGGACCUGGAGGUGGCAA,-0.811
UGGGAGGUGGAUUUUGUUUAUUUUUUUAGCUCAUUUCCAGGGGUGGGAGUUUUUUUUUAAUAUGUGUCAUGAAUAAAGUUGUUUUUGAAA,1.65
CCUGUGCUACACAUCGUAUGUACCGAAUCGGGAAAAAGGGAAAAAAAGGGAAAAAAAGGGAAAGUAUUAUGUUACGCCGUUCGGAUCUGC,-0.00187
GUGCUACACAUCGUAUGUACCGAAUCGGGGUUUUUUUGGGGUUUUUUUGGGGAAAAAAAGGGGAAAGUAUUAUGUUACGCCGUUCGGAUC,0.889
ACCAUGCAGGUGGGCAUCUUUGAGAAGUGGGGCAAGGGGGGGAUAGGGAGGGGGGUAACACUUUGGGAACAGGUGGUCCCAGGUCGUUUC,-0.608
AAGUCCUGUGCUACACAUCGUAUGUACCGAAUCGGGAAAGGGAGGGAAAAAAAGGGAAAGUAUUAUGUUACGCCGUUCGGAUCUGCACUU,0.248
AGUCCUGUGCUACACAUCGUAUGUACCGAAUCGGGGAAAAAGGAAAAAGGGAAAAAGGAAAGUAUUAUGUUACGCCGUUCGGAUCUGCAC,-0.123
AACUGGAAGAACAGACCCGUAGGGCUCUGGAACUUGAGCAGGAACGGAAGCGUGCCCAGAGCGAGGCUGAAAAGCUGGCCAAGGAGCGUC,-0.307
ACCAUGCAGGUGGGCAUCUUUGGGAAGUGGGUCAAGGGGGGGAUAGGGAGGGGGGUAACACUUUGGGAACAGGUGGUCCCAGGUCGUUUC,-0.258
CAAGUCCUGUGCUACACAUCGUAUGUACCGAAUCGGCCCGGCCCGGGGCCCGGGGAAAGUAUUAUGUUACGCCGUUCGGAUCUGCACUUC,-0.735
